Results gathered from unrelated publications.
Each line is one published result; not all experiments were run side by side. Several values in a cell are separate wells, animals, samples, runs or records. Numbers after ± are the reported error.
rep main protease: Replicase polyprotein 1ab, main protease (rep, Severe acute respiratory syndrome coronavirus 2, UniProt P0DTD1)
Spike glycoprotein: Spike glycoprotein (Severe acute respiratory syndrome coronavirus 2, UniProt P0DTC2)

| Structure (SMILES) | tested on | assay | system | conditions | how to read | measurement | result |
| --- | --- | --- | --- | --- | --- | --- | --- |
| C[C@@H]1CC[C@]2(C(=O)O)CC[C@]3(C)C(=CC[C@@H]4[C@@]5(C)CC[C@H](O)C(C)(C)[C@@H]5CC[C@]43C)[C@@H]2[C@]1(C)O | rep main protease | reporter gene (Gaussia luciferase), inhibitor | – | 20 µM | – | inhibition | -1.88% |
| CCc1c(C(=O)C(N)=O)c2c(OCC(=O)O)cccc2n1Cc1ccccc1 | Daboia russelii venom phospholipase A2 | enzyme activity, inhibitor | PB population | 1 µM, with: NOB substrate | reference: venom alone | remaining activity | 85% and 90% |
| Nc1ncnc2c([C@@H]3N[C@H](CO)[C@@H](O)[C@H]3O)c[nH]c12 | Nipah henipavirus | viral replication | HeLa, Malaysia | 12.5 µM | – | inhibition | 1.2% |
| Cn1cnc(Cn2c(=O)[nH]/c(=N\c3cc4cn(C)nc4cc3Cl)n(Cc3cc(F)c(F)cc3F)c2=O)n1 | – | – | human, mild renal impairment | oral, 375 mg, hypertriglyceridaemia TEAE, Moderate severity | – | patients with adverse event | 12.5% |
| C=C(C)C1(O)OC(=O)C=C1OC (centres unmarked) | rep main protease | reporter gene (mKate2), inhibitor | HEK293T | 20 µM | – | inhibition | -0.522% |
| Cc1[nH]nc2c(C(=O)N3CCC4(CCC[C@H]4NC(=O)C4=CN=C5NNN=C5C4)CC3)cccc12 | rep main protease | enzyme activity, inhibitor | – | 5 µM, mean of runs | – | inhibition | 10% |
| Cc1nc(N)c2cnn(C3CCN(C(=O)c4ccc(S(=O)(=O)F)cc4)CC3)c2n1 | cya (Bacillus anthracis, UniProt P40136) | – | – | – | – | kinact | 0.0012 s⁻¹ |
| O=c1cc(-c2ccc(O)cc2)oc2cc(O)c(O)c(O)c12 | Spike glycoprotein | binding, BLI | – | – | – | koff | 0.00498 s⁻¹ |
| CC[C@H](C)[C@H](NC(=O)[C@H](CC(C)C)NC(=O)[C@H](Cc1c[nH]c2ccccc12)NC(=O)[C@H](CCC(N)=O)NC(=O)[C@@H](NC(=O)[C@H](Cc1ccccc1)NC(=O)[C@H](C)NC(=O)[C@H](CCCCNC(=O)COCCOCCNC(=O)COCCOCCNC(=O)CC[C@H](NC(=O)CCCCCCCCCCCCCCCCCCC(=O)O)C(=O)O)NC(=O)[C@H](CCC(N)=O)NC(=O)[C@H](C)NC(=O)[C@@H](NC(=O)[C@H](CCCCN)NC(=O)[C@H](CC(=O)O)NC(=O)[C@H](CC(C)C)NC(=O)C(C)(C)NC(=O)[C@@H](NC(=O)[C@H](CO)NC(=O)[C@H](Cc1ccc(O)cc1)NC(=O)[C@H](CC(=O)O)NC(=O)[C@H](CO)NC(=O)[C@@H](NC(=O)[C@H](Cc1ccccc1)NC(=O)[C@@H](NC(=O)CNC(=O)[C@H](CCC(=O)O)NC(=O)C(C)(C)NC(=O)[C@@H](N)Cc1ccc(O)cc1)[C@@H](C)O)[C@@H](C)O)[C@@H](C)CC)[C@@H](C)CC)C(C)C)C(=O)N[C@@H](C)C(=O)NCC(=O)NCC(=O)N1CCC[C@H]1C(=O)N[C@@H](CO)C(=O)N[C@@H](CO)C(=O)NCC(=O)N[C@@H](C)C(=O)N1CCC[C@H]1C(=O)N1CCC[C@H]1C(=O)N1CCC[C@H]1C(=O)N[C@@H](CO)C(N)=O | – | measured: Nausea | healthy subjects | 5/5/8/10 mg titrated, multiple ascending dose | – | subjects with adverse events | 42.9% |
| C[C@]1(C(=O)N[C@@H]2CC[C@H]3C[C@@H]2CN3C(=O)Cc2cncc(O)c2)CCc2ccccc2C1 | rep main protease | enzyme activity, inhibitor | – | 5 µM | – | inhibition | 12.2% |
| COc1ccc2nc([S@@+]([O-])Cc3ncc(C)c(OC)c3C)[nH]c2c1 | rep main protease | reporter gene (Gaussia luciferase), inhibitor | – | 20 µM | – | inhibition | 2.49% |
| O=C(NC[C@H]1Cc2ccccc2CN1C(=O)c1n[nH]c(=O)[nH]c1=O)c1cccc2ccncc12 | rep main protease | enzyme activity, inhibitor | – | 5 µM, run 1 | – | inhibition | 13% |
| COc1c(/C=C/C(=O)c2ccc(O)cc2)ccc(O)c1O | Spike glycoprotein | binding, biolayer interferometry | – | – | – | kon | 113 M⁻¹ s⁻¹ |
| CC(C)C[C@H](NC(=O)[C@@H](N)CO)C(=O)N[C@@H](CCC(=O)O)C(=O)N[C@H](C(=O)N[C@H](C(=O)N[C@@H](CCC(=O)O)C(=O)N[C@@H](C)C(=O)N[C@@H](CC(=O)O)C(=O)O)[C@@H](C)O)C(C)C | Transcriptional regulatory protein EmbR (embR, Mycobacterium tuberculosis, UniProt P9WGJ9) | biolayer interferometry | – | – | – | koff | 0.00089 ± 0.000123 s⁻¹ |
| CC(C)(C(=O)NCC(F)(F)C(F)(F)F)C(=O)N[C@@H]1C(=O)Nc2ccccc2-c2ccccc21 | rep main protease | reporter gene (Gaussia luciferase), inhibitor | – | 20 µM | – | inhibition | 0.921% |
| CC[C@H](C)[C@H](NC(=O)[C@@H]1CCCN1C(=O)[C@H](C)NC(=O)[C@@H]1CSSC[C@@H]2NC(=O)[C@H](CC(=O)O)NC(=O)[C@H](CCCNC(=N)N)NC(=O)[C@H](CCC(=O)O)NC(=O)[C@H](CCCNC(=N)N)NC(=O)CNC(=O)[C@H](CC(=O)O)NC(=O)[C@@H]3CSSC[C@H](NC(=O)[C@H](CCC(=O)O)NC(=O)[C@H](CC(C)C)NC(=O)CNC(=O)[C@H](C)NC(=O)[C@H](CSSC[C@H](NC(=O)[C@H](Cc4ccccc4)NC(=O)[C@@H](N)CO)C(=O)N[C@@H](CC(C)C)C(=O)N[C@@H](C(C)C)C(=O)N[C@@H](CCCCN)C(=O)N[C@@H](Cc4c[nH]c5ccccc45)C(=O)N[C@@H](CCCCN)C(=O)N[C@@H](CCC(N)=O)C(=O)N3)NC2=O)C(=O)N[C@@H](Cc2c[nH]c3ccccc23)C(=O)N[C@@H](CCCCN)C(=O)N[C@@H](CCCNC(=N)N)C(=O)N[C@@H](CO)C(=O)NCC(=O)N[C@@H](CC(N)=O)C(=O)N[C@@H](CCCCN)C(=O)N[C@@H](CO)C(=O)N[C@@H](CO)C(=O)N[C@@H](C(C)C)C(=O)N1)C(=O)N[C@H](C(=O)O)[C@@H](C)O | ASIC1 (Homo sapiens, UniProt P78348, F352A) | outside-out patch clamp | HEK-293T ASIC1a knockout | 1 µM, F352A mutant | reference: before toxin | rise time fold change | 0.8 ± 0.2 fold |
| O=C(NC[C@H](NC(=O)c1cncc2ccccc12)c1ccc2ccccc2c1)c1cccnc1 | rep main protease | enzyme activity, inhibitor | – | 5 µM, mean of runs | – | inhibition | 12.4% |

A few entries again:
| Structure (SMILES) | tested on | assay | system | conditions | how to read | measurement | result |
| --- | --- | --- | --- | --- | --- | --- | --- |
| O=C(NC[C@H]1Cc2ccccc2CN1C(=O)c1n[nH]c(=O)[nH]c1=O)c1cccc2ccncc12 | rep main protease | enzyme activity, inhibitor | – | 5 µM, run 1 | – | inhibition | 13% |
